Measurements gathered from unrelated publications.
A part holds a random share of what one study measured. “And” joins repeats or separate records; there may be more than shown.
Sequence of UniProt P9WI81 (whole entry, looked up): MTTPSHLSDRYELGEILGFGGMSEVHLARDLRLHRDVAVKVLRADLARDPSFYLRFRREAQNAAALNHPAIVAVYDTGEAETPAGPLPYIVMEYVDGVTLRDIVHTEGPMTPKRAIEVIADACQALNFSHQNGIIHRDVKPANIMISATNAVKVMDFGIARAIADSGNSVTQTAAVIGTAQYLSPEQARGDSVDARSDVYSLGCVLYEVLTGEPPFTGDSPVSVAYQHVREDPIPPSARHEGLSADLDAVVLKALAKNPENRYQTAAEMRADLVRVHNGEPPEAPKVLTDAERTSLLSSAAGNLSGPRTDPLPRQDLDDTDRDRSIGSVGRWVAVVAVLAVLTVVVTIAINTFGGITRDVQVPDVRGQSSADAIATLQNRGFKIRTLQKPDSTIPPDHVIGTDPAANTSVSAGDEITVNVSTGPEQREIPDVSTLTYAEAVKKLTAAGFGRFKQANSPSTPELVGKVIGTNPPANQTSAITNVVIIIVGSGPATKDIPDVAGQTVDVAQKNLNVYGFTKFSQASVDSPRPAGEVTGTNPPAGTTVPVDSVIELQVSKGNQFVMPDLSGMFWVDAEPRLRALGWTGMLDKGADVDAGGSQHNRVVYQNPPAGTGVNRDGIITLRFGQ
Sequence of UniProt P62344 (whole entry, looked up): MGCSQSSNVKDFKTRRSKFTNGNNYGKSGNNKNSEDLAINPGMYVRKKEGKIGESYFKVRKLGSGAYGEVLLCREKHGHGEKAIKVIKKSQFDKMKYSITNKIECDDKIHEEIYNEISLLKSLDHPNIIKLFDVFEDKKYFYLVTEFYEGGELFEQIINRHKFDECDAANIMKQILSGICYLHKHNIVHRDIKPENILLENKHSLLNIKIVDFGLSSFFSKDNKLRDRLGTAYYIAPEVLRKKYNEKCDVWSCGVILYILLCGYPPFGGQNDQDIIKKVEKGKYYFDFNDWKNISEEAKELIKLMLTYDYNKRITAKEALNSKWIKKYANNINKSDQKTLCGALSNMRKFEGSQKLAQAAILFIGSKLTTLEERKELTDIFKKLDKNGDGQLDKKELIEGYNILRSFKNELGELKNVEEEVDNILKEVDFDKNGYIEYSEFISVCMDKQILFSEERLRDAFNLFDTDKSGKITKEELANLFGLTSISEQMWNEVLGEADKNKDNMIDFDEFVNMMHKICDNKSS
Sequence of UniProt P61075 (whole entry, looked up): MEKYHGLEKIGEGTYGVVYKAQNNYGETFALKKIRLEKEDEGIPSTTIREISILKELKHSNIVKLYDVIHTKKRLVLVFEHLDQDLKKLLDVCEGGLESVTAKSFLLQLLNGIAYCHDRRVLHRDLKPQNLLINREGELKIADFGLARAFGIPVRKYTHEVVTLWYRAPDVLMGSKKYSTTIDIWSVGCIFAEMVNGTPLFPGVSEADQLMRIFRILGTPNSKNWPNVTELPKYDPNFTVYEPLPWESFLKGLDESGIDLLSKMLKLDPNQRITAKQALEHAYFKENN

Block 1
Organism: Sarcocystis neurona
Observed: parasite growth
Concentration: 10 µM
Time: 96 h
Setting: secondary screen
| Structure (SMILES) | inhibition [%] |
| --- | --- |
| COc1ccc(C(CN(C)C)C2(O)CCCCC2)cc1 (stereo not drawn) | -25.2 |
| CNCC(O)c1ccc(O)cc1 (stereo not drawn) | -17.3 |
| Cc1nnc2n1-c1ccc(Cl)cc1C(c1ccccc1)=NC2 | -10 |
| NC(=O)C[S+]([O-])C(c1ccccc1)c1ccccc1 (stereo not drawn) | -10.9 |
| Cc1ncc2n1-c1ccc(Cl)cc1C(c1ccccc1F)=NC2 | -13.7 |
| C=C1C[C@@H]2[C@H](CC[C@]3(C)C(=O)CC[C@@H]23)[C@@]2(C)C=CC(=O)C=C12 | -23 |
| C[C@]12C/C(=C/O)C(=O)C[C@@H]1CC[C@@H]1[C@@H]2CC[C@@]2(C)[C@H]1CC[C@]2(C)O | -20.9 |
| CN1C(=O)CN=C(c2ccccc2)c2cc([N+](=O)[O-])ccc21 | -15.5 |
| O=C1CN=C(c2ccccc2)c2cc([N+](=O)[O-])ccc2N1 | -34.1 |
| CC(NC(C)(C)C)C(=O)c1cccc(Cl)c1 (stereo not drawn) | -0.7 |

Block 2
Organism: Vesicular stomatitis virus
Observed: pseudovirus infection
Method: FDA-approved drug library screen
Concentration: concentration not given
Setting: VSV-G control pseudotype
Reference: vehicle
| SMILES | GFP-positive cells [%] |
| --- | --- |
| CN(C)CCC(c1ccc(Br)cc1)c1ccccn1.O=C(O)/C=C\C(=O)O (stereo not drawn) | 102 |
| CCn1cc(C(=O)O)c(=O)c2cc(F)c(N3CCNCC3)nc21.CCn1cc(C(=O)O)c(=O)c2cc(F)c(N3CCNCC3)nc21.O.O.O | 103 |
| C[C@@H]1CCN(C(=O)CC#N)C[C@@H]1N(C)c1ncnc2[nH]ccc12.O=C(O)CC(O)(CC(=O)O)C(=O)O | 124 |
| O=C(O)CCCN1CCC(O[C@@H](c2ccc(Cl)cc2)c2ccccn2)CC1.O=S(=O)(O)c1ccccc1 | 123 |
| O=C1c2ccccc2C(=O)C1c1ccccc1 | 115 |
| CC(C)OC(=O)[C@H](C)N[P@](=O)(OC[C@H]1O[C@@H](n2ccc(=O)[nH]c2=O)[C@](C)(F)[C@@H]1O)Oc1ccccc1 | 121 |
| NC[C@@H]1O[C@H](O[C@H]2[C@@H](O)[C@H](O[C@@H]3[C@@H](O)[C@H](N)C[C@H](N)[C@H]3O[C@H]3O[C@H](CN)[C@@H](O)[C@H](O)[C@H]3N)O[C@@H]2CO)[C@H](N)[C@@H](O)[C@@H]1O.O=S(=O)(O)O | 81.6 |
| CN(C)CCc1c[nH]c2ccc(CS(=O)(=O)N3CCCC3)cc12.O=C(O)CC(O)C(=O)O | 125 |
| [I-].[K+] | 86.5 |
| N#CC[C@H](C1CCCC1)n1cc(-c2ncnc3[nH]ccc23)cn1.O=P(O)(O)O | 111 |

Block 3
SMILES: CNC(=O)c1ccc(-c2cnn3ccc(C(=O)N(C)c4ccc(Cl)c(C(=O)OC)c4)cc23)cc1
Organism: Cryptosporidium parvum
Method: time-kill
Cell line: HCT-8
Strain: nanoluciferase-expressing
Reference: DMSO control
| concentration | time | luminescence remaining |
| --- | --- | --- |
| 0.2469 µM | 72 h | 12.7% and 10.5% |
| 6.667 µM | 48 h | 11.8% and 13.6% |
| 20 µM | 0 h | 97.9% and 93.1% and 102% and 106% and 113% and 85.3% and 94.5% |
| 0.2469 µM | 8 h | 92.2% and 111% |
| 20 µM | 24 h | 42.7% and 38.6% |
| 20 µM | 48 h | 12.9% and 10.9% |
| 0.00305 µM | 72 h | 79.6% and 95.1% |
| 0.00305 µM | 48 h | 117% and 99.6% |
| 0.2469 µM | 24 h | 29.5% and 41.8% |
| 0.7407 µM | 4 h | 105% and 104% |
| 0.02743 µM | 0 h | 102% and 93.1% and 113% and 94.5% and 106% and 97.9% and 85.3% |
| 2.222 µM | 24 h | 40.7% and 41.3% |
| 2.222 µM | 0 h | 135% and 107% and 119% and 111% and 85% and 87.2% and 96.3% and 102% |
| 20 µM | 72 h | 10.7% and 8.72% |
| 0.2469 µM | 0 h | 103% and 85.9% and 92% and 105% and 117% and 94.1% and 101% and 102% |

Other studies, line by line
| SMILES | target or system | assay | setting | how to read | measurement | value |
| --- | --- | --- | --- | --- | --- | --- |
| Cn1cc(Cl)c2c(Oc3c(F)cc(Nc4cc(Cl)nc(N)n4)cc3F)ccnc21 | CDPK1 (Plasmodium falciparum, UniProt P62344) | cell-free assay, competition with immobilised ligand | 0.1 µM | – | remaining binding | 88% |
| O=C(NC[C@@H]1[C@H]2CN(C(=O)OCc3cc(C(F)(F)F)cc(C(F)(F)F)c3)C[C@@H]12)c1ccc2[nH]nnc2c1 | CRK2 (Plasmodium falciparum, UniProt P61075) | cell-free assay, competition with immobilised ligand | 1 µM | – | remaining binding | 100% |
| Cc1cc(NC(=O)c2cccc(S(F)(F)(F)(F)F)c2)cc(-n2ccn3nc(-c4cccnc4)cc23)c1 | sample E normal colon organoid | CellTiter-Glo | 1 µM, 4 days | reference: DMSO | viability | 116% |
| CNC(=O)Nc1ccc2c(c1)CC[C@@]21OC(=O)N(CC(=O)N(Cc2ccc(F)cc2)[C@@H](C)C(F)(F)F)C1=O | pknB (Mycobacterium tuberculosis, UniProt P9WI81) | cell-free assay, competition with immobilised ligand | 1 µM | – | remaining binding | 83% |

Excerpt of the above (block 1):
| Structure (SMILES) | inhibition [%] |
| --- | --- |
| COc1ccc(C(CN(C)C)C2(O)CCCCC2)cc1 (stereo not drawn) | -25.2 |
| NC(=O)C[S+]([O-])C(c1ccccc1)c1ccccc1 (stereo not drawn) | -10.9 |
| C=C1C[C@@H]2[C@H](CC[C@]3(C)C(=O)CC[C@@H]23)[C@@]2(C)C=CC(=O)C=C12 | -23 |
| C[C@]12C/C(=C/O)C(=O)C[C@@H]1CC[C@@H]1[C@@H]2CC[C@@]2(C)[C@H]1CC[C@]2(C)O | -20.9 |
| CNCC(O)c1ccc(O)cc1 (stereo not drawn) | -17.3 |
